Assay results from different studies.
Each numbered part is a random draw from the data of one study; scales do not carry over between parts. Positions count from the first letter of the parent shown.

Sample 1
Target: CCND1, cyclin fold, Cln2 fusion (human)
Technique: yeast growth competition, sequencing
Matrix: yeast
Notes: weak parent motif
Baseline: not given
Direction: higher = stronger binding
Starting sequence: RB1 docking peptide (human); PKPLKKLRFDIEG; partner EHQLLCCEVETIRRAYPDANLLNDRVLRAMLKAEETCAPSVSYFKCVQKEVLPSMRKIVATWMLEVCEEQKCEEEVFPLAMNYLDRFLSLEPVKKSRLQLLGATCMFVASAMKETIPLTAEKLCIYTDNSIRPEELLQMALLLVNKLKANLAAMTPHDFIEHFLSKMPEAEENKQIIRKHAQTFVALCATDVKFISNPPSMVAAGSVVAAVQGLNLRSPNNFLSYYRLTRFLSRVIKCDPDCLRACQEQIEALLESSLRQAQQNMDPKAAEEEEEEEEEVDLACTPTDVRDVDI
`HKPLKKLRFDIEG [P1H]` — result for “normalised enrichment score”: 0.295.
Under “normalised enrichment score”, `PKPLKKLRFDIEL [G13L]` is recorded as -0.287.
For `PKPLKKPRFDIEG [L7P]`, “normalised enrichment score” read -0.171.
`PKPLKKLRFDIMG [E12M]`: “normalised enrichment score” 0.0268.
For `PKPLKKLRFHIEG [D10H]`, “normalised enrichment score” read 0.369.
For `PKPLKKLRFDVEG [I11V]`, “normalised enrichment score” read 0.0464.
Under “normalised enrichment score”, `PKPLKKLFFDIEG [R8F]` is recorded as 0.349.
`PKPLKKLRFDTEG [I11T]` — result for “normalised enrichment score”: -0.613.
`PKPGKKLRFDIEG [L4G]`: “normalised enrichment score” 0.02.
`PKPLAKLRFDIEG [K5A]` — result for “normalised enrichment score”: -0.173.

Sample 2
Target: Ras GTPase-activating protein-binding protein 1, full length (G3BP1, Homo sapiens, UniProt Q13283)
Chain of UniProt Q13283 (whole entry, looked up): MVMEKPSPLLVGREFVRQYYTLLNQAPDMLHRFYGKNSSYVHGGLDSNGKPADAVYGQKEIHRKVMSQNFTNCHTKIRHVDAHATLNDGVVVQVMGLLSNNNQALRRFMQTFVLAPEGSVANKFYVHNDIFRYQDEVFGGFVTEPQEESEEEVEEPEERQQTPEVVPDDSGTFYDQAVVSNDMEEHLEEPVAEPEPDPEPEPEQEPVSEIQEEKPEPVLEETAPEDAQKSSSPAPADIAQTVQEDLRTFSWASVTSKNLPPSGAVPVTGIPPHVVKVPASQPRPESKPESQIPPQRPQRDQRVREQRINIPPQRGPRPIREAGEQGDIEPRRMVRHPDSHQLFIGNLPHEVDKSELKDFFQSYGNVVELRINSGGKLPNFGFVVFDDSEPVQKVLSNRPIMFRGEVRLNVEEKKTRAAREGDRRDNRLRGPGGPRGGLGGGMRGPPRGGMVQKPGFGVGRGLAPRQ
Technique: RNA Bind-n-Seq
Molecule type: RNA
Matrix: in vitro
Tested at: 200 nM
Notes: whole 134-nt RNA, ends assumed
Added: 150 mM KCl
Baseline: input library
Direction: higher = stronger binding
Shared flanks, not repeated: GGGAGUUCUACAGUCCGACGAUC … UGGAAUUCUCGGGUGUCAAGG
With `UCCUGUGCUACACAUCGUAUGUACCGAAUCGGGUUUUUUGGGGUUUUUUGGUUUUUUGGGAAAGUAUUAUGUUACGCCGUUCGGAUCUGC` the log2 enrichment was -0.337.
`CCUCAAGUCCUGUGCUACACAUCGUAUGUACCGAAUCGGAAGGGAAGGAAGGGAAAGUAUUAUGUUACGCCGUUCGGAUCUGCACUUCCA` gave a log2 enrichment of -0.658.
For `CUGUGCUACACAUCGUAUGUACCGAAUCGGGGUUUGGGGAAAAAAAGGGGUUUUUUUGGGGAAAGUAUUAUGUUACGCCGUUCGGAUCUG`, the log2 enrichment was -0.106.
With `AGUCCUGUGCUACACAUCGUAUGUACCGAAUCGGGCCCCGGGGCCCCGGGGCCCCGGAAAGUAUUAUGUUACGCCGUUCGGAUCUGCACU` the log2 enrichment was 0.374.
For `UAACUUUAGAGGAGGAUCUGAUGGAUAUUGCAGUGGACGUGGAUUUGGGGAUGGCUAUAAUGGGUAUGGAGGAGGACCUGGAGGUGGCAA`, the log2 enrichment was 0.436.
`CUGUGCUACACAUCGUAUGUACCGAAUCGGGGAAAAAAAGGGGAAAAAAAGGGAAAAAAAGGAAAGUAUUAUGUUACGCCGUUCGGAUCU` has a log2 enrichment of -0.59.
`UGGGAGGUGGAUUUUGUUUAUUUUUUUAGCUCAUUUCCAGGGGUGGGAAUUUUUUUUUAAUAUGUGCCAUGAAUAAAGUUGUUUUUGAAA` gave a log2 enrichment of 0.11.
With `AAGUCCUGUGCUACACAUCGUAUGUACCGAAUCGGAGGUUUUUUUGGUUUUUUUGGAAAGUAUUAUGUUACGCCGUUCGGAUCUGCACUU` the log2 enrichment was -1.37.

Sample 3
Target: TAR DNA-binding protein 43, full length, His tag (TARDBP, Homo sapiens, UniProt Q13148, residues 1-414)
Technique: RNA Bind-n-Seq
Molecule type: RNA
Matrix: in vitro
Tested at: 20 nM
Notes: 6-mer, flanks averaged, single round
Added: 150 mM KCl
Baseline: input library
Direction: higher = stronger binding
`UGCCGC` — result for “6-mer enrichment (R)”: 0.816.
Under “6-mer enrichment (R)”, `AUCCGG` is recorded as 0.899.
For `CAGAUC`, “6-mer enrichment (R)” read 0.614.
Under “6-mer enrichment (R)”, `AGUGCC` is recorded as 0.823.
`GGAGCU`: “6-mer enrichment (R)” 1.45.
`GUCUUC` — result for “6-mer enrichment (R)”: 0.575.
`UACGUG`: “6-mer enrichment (R)” 0.911.
For `CGAUAC`, “6-mer enrichment (R)” read 0.61.
Under “6-mer enrichment (R)”, `CCUUUU` is recorded as 0.694.
`GUUCUA` — result for “6-mer enrichment (R)”: 0.579.
`GACAUC`: “6-mer enrichment (R)” 0.698.
For `GCGCUG`, “6-mer enrichment (R)” read 1.37.

Further values, each from its own experiment
`PhoQ, residues 284 288 289 292 302 303 AGHLVA` gave a fold induction of 2.35 (PhoP, residues 12 14 15 18 19 NHTVL (Escherichia coli, UniProt P23836); Sort-seq, measured: YFP reporter; E. coli; PhoQ-PhoP variant library, added: 10 µM Mg2+; baseline: high Mg2+ state, higher = stronger signaling).

A few entries again (sample 1):
`PKPLAKLRFDIEG [K5A]` — result for “normalised enrichment score”: -0.173.
`HKPLKKLRFDIEG [P1H]` — result for “normalised enrichment score”: 0.295.
Under “normalised enrichment score”, `PKPLKKLFFDIEG [R8F]` is recorded as 0.349.
